Published values from different studies.
Protocols differ between the studies behind these lines. Numbers after ± are the reported error.
Spike glycoprotein RBD: Spike glycoprotein, RBD (Severe acute respiratory syndrome coronavirus 2, UniProt P0DTC2)
Sequence of UniProt P33533 (whole entry, looked up): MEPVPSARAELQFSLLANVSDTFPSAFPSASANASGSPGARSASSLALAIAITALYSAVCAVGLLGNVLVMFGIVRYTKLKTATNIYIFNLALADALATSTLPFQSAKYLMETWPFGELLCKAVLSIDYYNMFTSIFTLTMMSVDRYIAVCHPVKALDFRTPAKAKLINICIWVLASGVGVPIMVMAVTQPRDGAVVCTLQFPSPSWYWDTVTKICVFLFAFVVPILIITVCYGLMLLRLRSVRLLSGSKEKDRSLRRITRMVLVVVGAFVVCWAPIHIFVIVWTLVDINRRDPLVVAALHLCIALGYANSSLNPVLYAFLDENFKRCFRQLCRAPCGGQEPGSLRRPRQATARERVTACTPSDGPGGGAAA
Sequence of UniProt P33535 (whole entry, looked up): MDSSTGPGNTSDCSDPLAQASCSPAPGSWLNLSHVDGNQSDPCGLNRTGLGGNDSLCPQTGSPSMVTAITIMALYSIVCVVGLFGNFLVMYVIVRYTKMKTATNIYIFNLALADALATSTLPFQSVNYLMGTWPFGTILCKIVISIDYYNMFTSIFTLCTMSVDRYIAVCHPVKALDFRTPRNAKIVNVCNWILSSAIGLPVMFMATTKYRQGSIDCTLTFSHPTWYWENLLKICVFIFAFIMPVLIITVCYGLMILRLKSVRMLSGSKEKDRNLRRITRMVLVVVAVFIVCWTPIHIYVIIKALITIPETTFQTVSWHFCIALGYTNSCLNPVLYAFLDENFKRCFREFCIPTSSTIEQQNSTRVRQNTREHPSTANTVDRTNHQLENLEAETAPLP

CC[C@H](C)[C@H](NC(=O)[C@H](CCC(=O)O)NC(=O)[C@H](CCC(N)=O)NC(=O)[C@H](CC(C)C)NC(=O)[C@@H]1CCCN1C(=O)[C@H](Cc1ccc(O)cc1)NC(=O)[C@@H](NC(=O)[C@H](CCC(N)=O)NC(=O)[C@H](C)NC(=O)[C@@H](NC(=O)[C@@H](NC(=O)[C@H](CO)NC(=O)[C@H](CS)NC(=O)[C@H](CCC(=O)O)NC(=O)[C@H](CCCCN)NC(=O)[C@H](CC(C)C)NC(=O)[C@H](Cc1ccccc1)NC(=O)[C@H](C)NC(=O)[C@H](CO)NC(=O)[C@H](Cc1c[nH]c2ccccc12)NC(=O)[C@H](CCCCN)NC(=O)[C@@H](N)CC(=O)O)[C@@H](C)O)[C@@H](C)CC)[C@@H](C)CC)C(=O)O — Kd (Spike glycoprotein RBD; pH 7.4): > 1000 µM
O=c1c(O)c(-c2cc(O)c(O)c(O)c2)oc2cc(O)cc(O)c12 — inhibition (Replicase polyprotein 1ab, 3C-like proteinase (rep, Middle East respiratory syndrome-related coronavirus, UniProt K9N7C7); enzyme activity; 10 µM): 5%
Cc1ccc(N2CC(N3CCC(C)(O)CC3)C2)cc1C(=O)NC1(c2ccc3c4c(cccc24)C(=O)N3C)CC1 — inhibition (SARS-CoV-2; viral replication; Vero C1008, Omicron BA.5; 0.01715 µM): 0%
O=C(Cc1csc2nc(-c3ccc(Br)cc3)cn12)NN=C1CCCC1 — EC50 (Vaccinia virus; viral cytopathicity; HEL): > 100 µg/mL
CC[C@H](C)[C@H](N)C(=O)N[C@@H](CCC(=O)O)C(=O)N[C@@H](CCC(=O)O)C(=O)N[C@@H](CCC(N)=O)C(=O)N[C@@H](C)C(=O)N[C@@H](CCCCN)C(=O)N[C@H](C(=O)N[C@@H](Cc1ccccc1)C(=O)N[C@@H](CC(C)C)C(=O)N[C@@H](CC(=O)O)C(=O)N[C@@H](CCCCNC(=O)CCS)C(=O)N[C@@H](Cc1ccccc1)C(=O)N[C@@H](CC(N)=O)C(=O)N[C@@H](Cc1c[nH]cn1)C(=O)N[C@@H](CCC(N)=O)C(=O)N[C@@H](C)C(=O)N[C@@H](CCC(=O)O)C(=O)N[C@@H](CC(=O)O)C(=O)N[C@@H](CC(C)C)C(=O)N[C@@H](Cc1ccccc1)C(=O)N[C@@H](Cc1ccc(O)cc1)C(=O)N[C@H](CCCCN)C(=O)O)[C@@H](C)O — Kd (Spike glycoprotein RBD; pH 7.4): > 1000 µM
COC(=O)C1C(OC(c2ccc(Cl)cc2)c2ccc(Cl)cc2)CC2CCC1N2C (single isomer, unassigned) — Ki (rat sodium channel site 2; radioligand binding; added: [3H]batrachotoxin benzoate): 1.03 ± 0.032 µM
Cc1ccc(N2CCN(C)CC2)cc1C(=O)NC1(c2ccc3c4c(cccc24)CC3)CC1 — inhibition (SARS-CoV-2; viral replication; Vero C1008, Omicron BA.5; 0.005716 µM): 0%
C[C@H](NC(=O)CNC(=O)[C@@H]1CCCN1C(=O)[C@H](CO)NC(=O)CNC(=O)[C@H](CO)NC(=O)[C@H](C)NC(=O)[C@H](CC(N)=O)NC(=O)[C@H](C)NC(=O)[C@H](CO)NC(=O)[C@H](C)NC(=O)[C@H](CO)NC(=O)[C@@H]1CCCN1C(=O)[C@H](Cc1ccccc1)NC(=O)[C@H](C)NC(=O)[C@H](CO)NC(=O)[C@@H]1CCCN1C(=O)[C@H](Cc1ccccc1)NC(=O)[C@@H](NC(=O)[C@H](CC(=O)O)NC(=O)[C@@H](N)CO)[C@@H](C)O)C(=O)N[C@@H](CCCNC(=N)N)C(=O)N[C@@H](CO)C(=O)O — koff (Oprd1/Oprm1 (Rattus norvegicus, UniProt P33533+P33535)): 8.06 ± 0.72 s⁻¹
CCOC(=O)C1C(OC(c2ccc(Cl)cc2)c2ccc(Cl)cc2)CC2CCC1N2C (single isomer, unassigned) — Ki (rat sodium channel site 2; radioligand binding; added: [3H]batrachotoxin benzoate): 0.934 ± 0.017 µM
